Measurements pooled from the literature.
A part holds a random share of what one study measured.

Study 1 — technique: protein binding microarray; form: double-stranded DNA, one strand shown; sample: in vitro; tested at: not given; relative to: not given; reading: higher = stronger binding
Target: Histone acetyltransferase KAT6A, winged helix 1, GST fusion (KAT6A, Homo sapiens, UniProt Q92794, residues 1-85)
Setting: 8-mer, flanks averaged, mean of 2 arrays, mostly near background
Residues (chain): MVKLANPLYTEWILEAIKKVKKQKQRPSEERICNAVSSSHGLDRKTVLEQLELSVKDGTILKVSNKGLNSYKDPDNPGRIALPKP
Strand	E-score
ACTTTACC	-0.106
AATTCGTA	-0.0997
CGCCAGAG	0.107
AATAGTAA	-0.0175
CGAGAATC	-0.0107
AATGTGCC	0.0187

Study 2 — technique: protein-binding microarray; form: double-stranded DNA, one strand shown; sample: in vitro; tested at: 940 nM top; setting: 60-bp whole probe; added: salmon DNA 0.4 mg/ml; relative to: random background probes; reading: higher = stronger binding
Target: Interferon regulatory factor 5, full length, phosphomimetic (IRF5, Homo sapiens, UniProt Q13568-2, residues 1-514, S451D/S453D/S456D/S462D)
Strand	fitted relative affinity [z-score]
GCCTAGCACTTAGAAGTGGGGTATCGATTAGTGCTAGTCTTGATTCGCTTGACGCTGCTG	2.81
GCCTAGCACTCACCTTTTCACTTTACACTGTGCTAGGTCTTGATTCGCTTGACGCTGCTG	1.86
GCCTAGCACTCACCCCTTGCTTTCCAACTGTGCTAGGTCTTGATTCGCTTGACGCTGCTG	0.903
GCCTAGCACTCAGTATTATTTATTGTACTGTGCTAGGTCTTGATTCGCTTGACGCTGCTG	-0.00495

Study 3 — technique: RNA Bind-n-Seq; form: RNA; sample: in vitro; tested at: 200 nM; setting: whole 134-nt RNA, ends assumed; added: 150 mM LiCl; relative to: input library; reading: higher = stronger binding; each molecule: 7-deaza-guanosine replaces G
Target: Fragile X messenger ribonucleoprotein 1, C-terminal low-complexity region (Fmr1, Mus musculus, UniProt P35922)
Shared flanks, not repeated: GGGAGUUCUACAGUCCGACGAUC … UGGAAUUCUCGGGUGUCAAGG
Strand	log2 enrichment
UGGCCCUGGUGGCAUGCGGGGAGGAAGAGGUGGCCUCAUGGAUCGUGGUGGUCCCGGUGGAAUGUUCAGAGGUGGCCGUGGUGUAGACAG	-1.1
UGUUCACAUUUUAAGGAUGACAAGUCCACUAUAUGUAACACGUAAGAAUGCUAUCCUGGCAGUAGACACAGGGCCAGAAUAAACUGGCAA	-1.91
UCCUGUGCUACACAUCGUAUGUACCGAAUCGGGUUUUUGGGUUUUUUUGGGUUUUUGGGAAAGUAUUAUGUUACGCCGUUCGGAUCUGCA	0.0696
UCAAGUCCUGUGCUACACAUCGUAUGUACCGAAUCGGGUUUGGGUUUGGGUGGGAAAGUAUUAUGUUACGCCGUUCGGAUCUGCACUUCC	-1.15
CUGUGCUACACAUCGUAUGUACCGAAUCGGGCCCCCCCGGGGCCCCCCCGGGGCCCCCCCGGAAAGUAUUAUGUUACGCCGUUCGGAUCU	0.0235
CUCAAGUCCUGUGCUACACAUCGUAUGUACCGAAUCGGUUUUUGGAAAGGAGGAAAGUAUUAUGUUACGCCGUUCGGAUCUGCACUUCCA	-1.02

Other studies, line by line
Molecule	target	test	test system	setting	how to read	endpoint	value
PhoQ, residues 284 288 289 292 302 303 ALASRC	PhoP, residues 12 14 15 18 19 SMASL (Escherichia coli, UniProt P23836)	Sort-seq, refers to: YFP reporter	E. coli	PhoQ-PhoP variant library, added: 10 µM Mg2+	relative to: high Mg2+ state, higher = stronger signaling	fold induction	3.57

Repeated from above (study 2):
Strand	fitted relative affinity [z-score]
GCCTAGCACTCACCCCTTGCTTTCCAACTGTGCTAGGTCTTGATTCGCTTGACGCTGCTG	0.903
